Assay results collected from several papers.
Each line is one published result; not all experiments were run side by side. Numbers after ± are the reported error.
Genome polyprotein NS2B-NS3 protease: Genome polyprotein, NS2B-NS3 protease (dengue virus type 2, UniProt P29990)

CC(C)(C)c1cc(-c2ccc3cc4ccccc4nc3n2)nc(-c2ccc3cc4ccccc4nc3n2)c1.Cc1ccncc1.[Cl-].[Cl-].[Ru+2].c1ccc2cc3nc4c5cccnc5c5ncccc5c4nc3cc2c1 gave a phototoxicity index of 4 (B16-F10; resazurin; added: light 633 nm, 100 J/cm2; relative to: dark EC50 over light EC50).
The EC50 of N#Cc1ccc(CNC(=O)c2cc(-c3ccccc3)n(-c3ccccc3)n2)cc1 is reported as 20 µM (Genome polyprotein NS2B-NS3 protease; reporter gene; HeLa).
For CC(C)c1ccc(N(C)c2ccc3c(c2)OCC[C@H]3CNc2cnccc2C(=O)O)cc1, the IC50 was 0.00697 µM (COLO-680N; cell viability, CellTiter-Glo; 7 days).
For Cn1ncc2cc(-c3cncc(Cl)c3N3CCC4(CCNC4=O)CC3)ccc21, “log2 fold change” read 2.07 (LS174T; gene expression, microarray, refers to: AKR1C2 mRNA; concentration not given, 24 h; relative to: untreated cells).
Cc1ccccc1-n1nc(C(=O)Nc2cccc(C(N)=O)c2)cc1-c1cccnc1 gave an EC50 of 9.7 µM (Genome polyprotein NS2B-NS3 protease; reporter gene; HeLa).
COC1CN([C@H]2CC[C@H]([C@@]3(C)Oc4c(Cl)cc(C(=O)NCc5c(SC)cc(C)[nH]c5=O)c(C)c4O3)CC2)C1 — result for “log2 fold change”: 1.4 (RNA-seq, refers to: MANSC1; human, whole blood; dose not given, 24 h; relative to: pretreatment baseline).
The IC50 of CNS(=O)(=O)Nc1nccc(Cc2c(C)c3ccc(Oc4ncccc4F)cc3oc2=O)c1F is reported as over 1 µM (Toledo; cell viability, CellTiter-Glo; 7 days).
CN1CCCNC(=O)c2cccc(c2)C(=O)NCCCN(C)CCCNc2cccc3c2C(=O)c2cccc(c2C3=O)NCCC1: “log2 fold change” 4.15 (SAS; RNA-Seq, refers to: C6orf52 mRNA; 1 µM, 6 h; relative to: untreated cells).
Cc1ccncc1.[Cl-].[Cl-].[Ru+2].c1cc(-c2ccc3cccnc3n2)nc(-c2ccc3cccnc3n2)c1.c1ccc2cc3nc4c5cccnc5c5ncccc5c4nc3cc2c1 has a phototoxicity index of 39 (B16-F10; resazurin; added: light 633 nm, 100 J/cm2; relative to: dark EC50 over light EC50).
Cc1ncsc1-c1ccc(C(C)NC(=O)C2CC(O)CN2C(=O)C(NC(=O)CCCCCCCCCCN2CCCC(Nc3ncc(Cl)c(Nc4ccccc4S(=O)(=O)C(C)C)n3)C2)C(C)(C)C)cc1 (stereo not drawn): “log2 fold change” -2.89 (22Rv1; RNA-seq, refers to: ZNF81 mRNA; concentration not given; relative to: DMSO).
CC(C)(C)c1cc(-c2ccc3cccnc3n2)nc(-c2ccc3cccnc3n2)c1.[Cl-].[Cl-].[Ru+2].c1cnc2c(c1)ccc1cccnc12 gave an EC50 of 121 ± 5 µM (B16-F10; photocytotoxicity, resazurin; visible light 400-700 nm, 20 mW, 100 J/cm2).
The fold regulation of CCN(CC)CC(=O)Nc1cccc(-n2cc(-c3ccc4ccc(-c5cn(-c6cccc(NC(=O)CN(CC)CC)c6)nn5)cc4c3)nn2)c1 is reported as -1.66 (RCC4; PCR angiogenesis array, refers to: COL18A1; 5 x IC50, 6 h, normoxia; relative to: untreated).

Repeated from above:
Cc1ccccc1-n1nc(C(=O)Nc2cccc(C(N)=O)c2)cc1-c1cccnc1 gave an EC50 of 9.7 µM (Genome polyprotein NS2B-NS3 protease; reporter gene; HeLa).
